Published values of several laboratories.
Each numbered part is a random draw from the data of one study; scales do not carry over between parts. Values joined by “and” are separate records of one study, mostly repeats; a detail may differ. Changes are numbered by the printed parent chain.
UniProt Q9UQM7, sequence (whole entry, looked up): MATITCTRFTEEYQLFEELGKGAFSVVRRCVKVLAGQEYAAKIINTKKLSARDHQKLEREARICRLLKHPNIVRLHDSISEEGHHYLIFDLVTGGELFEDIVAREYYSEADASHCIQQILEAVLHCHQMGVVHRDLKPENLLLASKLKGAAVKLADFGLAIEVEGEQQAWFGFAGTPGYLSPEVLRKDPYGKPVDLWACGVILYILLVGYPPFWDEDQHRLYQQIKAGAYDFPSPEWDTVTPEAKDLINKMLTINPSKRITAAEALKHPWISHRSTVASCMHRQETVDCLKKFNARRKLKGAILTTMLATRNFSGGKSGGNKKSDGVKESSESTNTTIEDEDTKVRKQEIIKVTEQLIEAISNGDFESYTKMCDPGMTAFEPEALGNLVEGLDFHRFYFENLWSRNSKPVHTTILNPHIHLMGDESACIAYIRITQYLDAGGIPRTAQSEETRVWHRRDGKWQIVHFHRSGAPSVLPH
UniProt O75417, sequence (whole entry, unmodified, looked up): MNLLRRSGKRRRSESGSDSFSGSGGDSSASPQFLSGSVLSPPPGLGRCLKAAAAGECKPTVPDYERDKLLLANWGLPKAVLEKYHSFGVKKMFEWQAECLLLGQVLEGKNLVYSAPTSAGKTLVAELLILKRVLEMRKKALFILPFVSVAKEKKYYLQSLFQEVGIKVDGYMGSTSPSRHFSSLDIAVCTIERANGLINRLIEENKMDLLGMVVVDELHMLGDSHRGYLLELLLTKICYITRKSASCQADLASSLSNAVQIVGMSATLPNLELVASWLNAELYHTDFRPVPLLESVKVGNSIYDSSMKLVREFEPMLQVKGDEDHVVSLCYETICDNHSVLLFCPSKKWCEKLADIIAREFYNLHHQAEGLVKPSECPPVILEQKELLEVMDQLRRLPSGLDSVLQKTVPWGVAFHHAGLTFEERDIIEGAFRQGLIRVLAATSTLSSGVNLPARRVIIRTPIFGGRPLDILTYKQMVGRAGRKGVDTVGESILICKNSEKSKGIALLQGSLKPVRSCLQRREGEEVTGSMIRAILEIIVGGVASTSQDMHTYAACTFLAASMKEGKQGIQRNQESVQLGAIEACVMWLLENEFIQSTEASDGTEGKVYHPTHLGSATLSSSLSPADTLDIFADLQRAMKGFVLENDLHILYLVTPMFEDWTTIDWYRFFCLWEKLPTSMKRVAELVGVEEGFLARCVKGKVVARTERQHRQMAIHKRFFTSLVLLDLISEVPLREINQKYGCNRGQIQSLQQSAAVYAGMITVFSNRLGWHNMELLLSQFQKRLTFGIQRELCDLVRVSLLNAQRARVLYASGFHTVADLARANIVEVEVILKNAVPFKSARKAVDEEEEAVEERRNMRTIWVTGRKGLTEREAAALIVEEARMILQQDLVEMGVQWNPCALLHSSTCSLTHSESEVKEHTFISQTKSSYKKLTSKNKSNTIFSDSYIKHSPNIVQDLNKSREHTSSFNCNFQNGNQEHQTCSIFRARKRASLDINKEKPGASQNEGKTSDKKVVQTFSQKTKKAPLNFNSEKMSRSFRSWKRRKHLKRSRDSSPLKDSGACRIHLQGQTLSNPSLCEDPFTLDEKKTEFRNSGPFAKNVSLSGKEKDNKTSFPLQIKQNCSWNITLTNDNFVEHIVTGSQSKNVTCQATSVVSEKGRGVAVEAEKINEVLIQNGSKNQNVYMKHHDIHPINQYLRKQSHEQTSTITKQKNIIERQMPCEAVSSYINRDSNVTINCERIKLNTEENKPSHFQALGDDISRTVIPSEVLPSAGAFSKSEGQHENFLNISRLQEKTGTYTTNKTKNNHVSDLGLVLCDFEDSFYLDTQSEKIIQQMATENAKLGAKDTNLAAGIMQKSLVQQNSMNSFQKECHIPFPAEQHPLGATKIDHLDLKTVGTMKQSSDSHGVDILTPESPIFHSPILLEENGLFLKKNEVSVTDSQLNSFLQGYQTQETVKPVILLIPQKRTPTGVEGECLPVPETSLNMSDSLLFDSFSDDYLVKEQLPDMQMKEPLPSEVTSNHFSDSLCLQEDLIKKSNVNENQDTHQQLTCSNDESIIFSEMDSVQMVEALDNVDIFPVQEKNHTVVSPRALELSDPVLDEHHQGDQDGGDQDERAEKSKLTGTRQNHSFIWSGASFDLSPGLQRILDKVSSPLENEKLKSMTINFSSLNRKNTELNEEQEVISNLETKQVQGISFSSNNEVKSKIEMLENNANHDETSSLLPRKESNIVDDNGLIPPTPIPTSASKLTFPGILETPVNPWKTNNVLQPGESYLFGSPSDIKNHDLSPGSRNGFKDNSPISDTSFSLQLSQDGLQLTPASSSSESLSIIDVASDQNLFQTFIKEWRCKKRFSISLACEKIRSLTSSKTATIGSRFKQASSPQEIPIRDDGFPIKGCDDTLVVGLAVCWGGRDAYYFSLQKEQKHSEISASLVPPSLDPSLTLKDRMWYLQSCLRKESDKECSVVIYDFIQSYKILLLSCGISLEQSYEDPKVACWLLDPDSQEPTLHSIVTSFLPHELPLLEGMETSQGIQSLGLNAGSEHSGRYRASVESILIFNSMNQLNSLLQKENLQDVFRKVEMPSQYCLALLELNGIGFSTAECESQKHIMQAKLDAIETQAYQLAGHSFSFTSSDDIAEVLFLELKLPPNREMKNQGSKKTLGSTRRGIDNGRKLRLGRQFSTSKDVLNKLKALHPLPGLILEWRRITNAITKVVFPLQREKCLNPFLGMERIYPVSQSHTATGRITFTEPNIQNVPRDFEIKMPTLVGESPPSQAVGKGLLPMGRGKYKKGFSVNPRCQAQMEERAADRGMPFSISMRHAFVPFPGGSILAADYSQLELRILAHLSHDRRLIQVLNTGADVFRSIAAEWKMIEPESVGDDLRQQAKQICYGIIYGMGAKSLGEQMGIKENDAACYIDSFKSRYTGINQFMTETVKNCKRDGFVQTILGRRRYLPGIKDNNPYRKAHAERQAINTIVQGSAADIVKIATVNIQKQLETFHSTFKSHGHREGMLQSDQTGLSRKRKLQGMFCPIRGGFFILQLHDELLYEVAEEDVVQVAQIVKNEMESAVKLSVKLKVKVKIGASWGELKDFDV

Series 1
Compound: CC(C)S(=O)(=O)c1ccc2nccc(Nc3ccc4sc(C5CCCC5)nc4c3)c2c1.Cl
Quantity: viability
L929 RIPK3 knockout; 25 µM: 91.8% and 95.9% and 92.8% and 94.3%
L929 RIPK3 knockout; 0.391 µM: 109% and 103% and 99.7% and 102%
L929 RIPK3 knockout; 25 µM, with: zVAD: 90.1% and 92.5% and 90.8% and 96% and 91.1%
L929; CCK-8; 6.25 µM, with: zVAD: 108% and 106% and 99.5% and 102%
L929 RIPK3 knockout; 12.5 µM: 97% and 102% and 109% and 106% and 101%
L929 RIPK3 knockout; 1.563 µM: 106% and 101% and 104% and 96.2% and 97.1%
L929; CCK-8; 25 µM, with: zVAD: 90.2% and 88.3% and 89.9% and 88.1% and 91.8%
L929; CCK-8; 6.25 µM: 110% and 106% and 102% and 101% and 111%
L929; CCK-8; 1.563 µM: 102% and 98.7% and 97.5%

Series 2
Target: CCNB2, cyclin fold, Cln2 fusion (human)
Technique: yeast growth competition, sequencing
Matrix: yeast
Notes: weak parent motif
Reference: not given
Reading: higher = stronger binding
Quantity: normalised enrichment score
Parent: viral docking peptide; KGVKRKLFAEDSS
R5D: 0.127
L7P: 0.372
G2P: 1.16
K6L: 0.481
L7N: 0.208
K4Y: 0.176
V3I: 1.01
F8E: 0.838

Single results of other studies
merbromin
Z-score (DNA polymerase theta, ATPase domain (POLQ, Homo sapiens, UniProt O75417); ATPase activity, inhibitor, ADP-Glo; 77 µM, replicate A; direction not given): -6.49

Cl[C@H]1[C@H](Cl)[C@@H](Cl)[C@@H](Cl)[C@H](Cl)[C@H]1Cl
viability (HaCaT; 100 µM, 18 h): 22%

Oc1ccc(C2NCc3ccccc3-n3cccc32)cc1Cl (stereo not drawn)
remaining compound (human, microsomes or S9; 2 µM, 0.5 h): 60.2%

CC(C)=CCC[C@@](C)(O)[C@H]1CC[C@]2(C)[C@@H]1[C@H](O)C[C@@H]1[C@@]3(C)CC[C@H](O)C(C)(C)[C@@H]3[C@@H](O[C@@H]3O[C@H](CO)[C@@H](O)[C@H](O)[C@H]3O)C[C@]12C
inhibition (CAMK2A (Homo sapiens, UniProt Q9UQM7); enzyme activity, inhibitor; 10 µM): 28%

Some of these lines once more (series 1):
L929 RIPK3 knockout; 25 µM, with: zVAD: 90.1% and 92.5% and 90.8% and 96% and 91.1%
L929; CCK-8; 6.25 µM, with: zVAD: 108% and 106% and 99.5% and 102%
